Assay results of several laboratories.
A part holds a random share of what one study measured. Values joined by “and” are separate records of one study, mostly repeats; a detail may differ.
Sequence of UniProt Q8WXR4 (whole entry, looked up): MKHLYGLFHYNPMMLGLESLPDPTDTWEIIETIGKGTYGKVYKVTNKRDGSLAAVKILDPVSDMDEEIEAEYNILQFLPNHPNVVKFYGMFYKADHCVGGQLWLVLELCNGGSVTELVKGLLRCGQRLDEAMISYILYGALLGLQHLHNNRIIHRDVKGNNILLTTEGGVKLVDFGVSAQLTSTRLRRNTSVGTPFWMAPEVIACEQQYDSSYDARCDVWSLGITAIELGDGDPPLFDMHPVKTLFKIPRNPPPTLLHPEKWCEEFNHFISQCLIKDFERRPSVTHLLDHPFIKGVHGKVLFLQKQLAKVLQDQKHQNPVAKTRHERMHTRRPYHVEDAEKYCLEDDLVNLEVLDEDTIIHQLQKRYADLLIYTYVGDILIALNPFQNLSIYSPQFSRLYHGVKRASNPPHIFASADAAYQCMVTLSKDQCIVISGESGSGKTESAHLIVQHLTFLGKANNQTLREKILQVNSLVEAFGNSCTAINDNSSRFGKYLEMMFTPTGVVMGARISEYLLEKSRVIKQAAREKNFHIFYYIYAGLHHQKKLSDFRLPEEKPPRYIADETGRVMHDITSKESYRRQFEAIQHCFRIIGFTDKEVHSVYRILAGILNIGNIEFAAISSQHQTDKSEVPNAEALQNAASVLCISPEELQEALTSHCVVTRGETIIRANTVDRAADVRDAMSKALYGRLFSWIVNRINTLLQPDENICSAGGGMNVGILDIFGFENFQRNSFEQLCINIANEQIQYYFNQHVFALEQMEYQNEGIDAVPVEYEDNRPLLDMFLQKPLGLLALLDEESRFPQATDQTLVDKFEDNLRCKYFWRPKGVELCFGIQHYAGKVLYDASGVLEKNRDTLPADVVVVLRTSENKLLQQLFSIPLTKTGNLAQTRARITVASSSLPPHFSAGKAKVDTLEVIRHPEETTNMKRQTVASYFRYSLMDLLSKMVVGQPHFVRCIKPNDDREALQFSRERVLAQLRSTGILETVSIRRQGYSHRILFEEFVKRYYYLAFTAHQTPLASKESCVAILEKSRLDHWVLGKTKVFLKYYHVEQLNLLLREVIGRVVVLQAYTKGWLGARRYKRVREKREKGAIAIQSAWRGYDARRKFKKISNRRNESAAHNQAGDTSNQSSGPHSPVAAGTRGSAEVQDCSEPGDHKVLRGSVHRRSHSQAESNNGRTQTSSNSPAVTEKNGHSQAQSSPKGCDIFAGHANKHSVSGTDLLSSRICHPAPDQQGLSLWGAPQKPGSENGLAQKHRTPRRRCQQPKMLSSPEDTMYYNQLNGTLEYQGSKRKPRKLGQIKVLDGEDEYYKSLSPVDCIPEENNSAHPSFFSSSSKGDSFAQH
Sequence of UniProt Q9HAZ1 (whole entry, looked up): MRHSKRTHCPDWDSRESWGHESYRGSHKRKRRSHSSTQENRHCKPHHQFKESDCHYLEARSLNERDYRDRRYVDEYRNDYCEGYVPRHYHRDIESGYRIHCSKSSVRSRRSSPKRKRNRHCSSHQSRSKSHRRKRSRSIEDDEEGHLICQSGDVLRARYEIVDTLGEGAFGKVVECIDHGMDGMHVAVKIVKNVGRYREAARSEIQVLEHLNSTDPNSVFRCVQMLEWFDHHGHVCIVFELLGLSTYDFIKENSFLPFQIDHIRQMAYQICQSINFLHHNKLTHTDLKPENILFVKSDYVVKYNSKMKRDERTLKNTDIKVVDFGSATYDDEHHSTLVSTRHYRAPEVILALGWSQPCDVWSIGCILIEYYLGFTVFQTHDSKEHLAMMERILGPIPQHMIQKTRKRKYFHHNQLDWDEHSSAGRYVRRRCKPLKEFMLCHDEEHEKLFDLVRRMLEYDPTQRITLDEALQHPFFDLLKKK
Sequence of UniProt P42681 (whole entry, looked up): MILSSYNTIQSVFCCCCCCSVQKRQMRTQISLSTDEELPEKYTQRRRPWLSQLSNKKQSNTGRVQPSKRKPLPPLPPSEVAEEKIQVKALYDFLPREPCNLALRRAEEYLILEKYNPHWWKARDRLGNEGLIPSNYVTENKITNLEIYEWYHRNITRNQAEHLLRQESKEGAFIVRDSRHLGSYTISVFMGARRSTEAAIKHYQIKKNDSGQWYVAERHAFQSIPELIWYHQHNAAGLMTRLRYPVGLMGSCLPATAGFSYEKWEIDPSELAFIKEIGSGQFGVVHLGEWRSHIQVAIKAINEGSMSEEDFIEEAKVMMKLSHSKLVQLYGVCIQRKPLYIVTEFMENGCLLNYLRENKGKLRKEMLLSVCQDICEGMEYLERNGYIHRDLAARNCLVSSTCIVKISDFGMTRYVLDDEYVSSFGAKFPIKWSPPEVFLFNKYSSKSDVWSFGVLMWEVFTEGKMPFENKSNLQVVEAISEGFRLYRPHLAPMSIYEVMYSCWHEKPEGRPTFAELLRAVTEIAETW
Sequence of UniProt Q9H4B4 (whole entry, looked up): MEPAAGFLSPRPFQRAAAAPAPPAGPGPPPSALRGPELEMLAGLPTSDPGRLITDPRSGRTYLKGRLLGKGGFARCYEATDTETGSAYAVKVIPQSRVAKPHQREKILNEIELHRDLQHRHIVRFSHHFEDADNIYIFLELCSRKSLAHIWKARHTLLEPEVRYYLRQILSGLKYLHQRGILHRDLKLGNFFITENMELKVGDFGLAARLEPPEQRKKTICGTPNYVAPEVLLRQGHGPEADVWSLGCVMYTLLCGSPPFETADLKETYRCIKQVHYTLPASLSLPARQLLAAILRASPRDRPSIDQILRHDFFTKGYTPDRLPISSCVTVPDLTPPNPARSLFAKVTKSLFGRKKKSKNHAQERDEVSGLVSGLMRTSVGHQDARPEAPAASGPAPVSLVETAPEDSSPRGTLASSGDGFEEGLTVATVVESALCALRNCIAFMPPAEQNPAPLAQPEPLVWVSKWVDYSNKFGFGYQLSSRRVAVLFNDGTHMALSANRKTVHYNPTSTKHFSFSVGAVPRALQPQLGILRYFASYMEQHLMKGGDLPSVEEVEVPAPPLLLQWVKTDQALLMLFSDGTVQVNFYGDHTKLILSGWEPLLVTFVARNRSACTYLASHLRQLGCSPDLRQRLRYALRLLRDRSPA
Sequence of UniProt P06493 (whole entry, looked up): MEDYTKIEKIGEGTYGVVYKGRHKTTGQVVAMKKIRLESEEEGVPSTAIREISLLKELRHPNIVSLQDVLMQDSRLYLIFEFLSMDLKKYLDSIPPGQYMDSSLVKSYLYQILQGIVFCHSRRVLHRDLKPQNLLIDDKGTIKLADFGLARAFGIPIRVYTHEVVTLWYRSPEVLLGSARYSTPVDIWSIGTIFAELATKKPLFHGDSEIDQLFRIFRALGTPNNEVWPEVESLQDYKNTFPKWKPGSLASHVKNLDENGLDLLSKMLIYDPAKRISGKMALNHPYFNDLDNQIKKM
Sequence of UniProt Q7KZI7 (whole entry, looked up): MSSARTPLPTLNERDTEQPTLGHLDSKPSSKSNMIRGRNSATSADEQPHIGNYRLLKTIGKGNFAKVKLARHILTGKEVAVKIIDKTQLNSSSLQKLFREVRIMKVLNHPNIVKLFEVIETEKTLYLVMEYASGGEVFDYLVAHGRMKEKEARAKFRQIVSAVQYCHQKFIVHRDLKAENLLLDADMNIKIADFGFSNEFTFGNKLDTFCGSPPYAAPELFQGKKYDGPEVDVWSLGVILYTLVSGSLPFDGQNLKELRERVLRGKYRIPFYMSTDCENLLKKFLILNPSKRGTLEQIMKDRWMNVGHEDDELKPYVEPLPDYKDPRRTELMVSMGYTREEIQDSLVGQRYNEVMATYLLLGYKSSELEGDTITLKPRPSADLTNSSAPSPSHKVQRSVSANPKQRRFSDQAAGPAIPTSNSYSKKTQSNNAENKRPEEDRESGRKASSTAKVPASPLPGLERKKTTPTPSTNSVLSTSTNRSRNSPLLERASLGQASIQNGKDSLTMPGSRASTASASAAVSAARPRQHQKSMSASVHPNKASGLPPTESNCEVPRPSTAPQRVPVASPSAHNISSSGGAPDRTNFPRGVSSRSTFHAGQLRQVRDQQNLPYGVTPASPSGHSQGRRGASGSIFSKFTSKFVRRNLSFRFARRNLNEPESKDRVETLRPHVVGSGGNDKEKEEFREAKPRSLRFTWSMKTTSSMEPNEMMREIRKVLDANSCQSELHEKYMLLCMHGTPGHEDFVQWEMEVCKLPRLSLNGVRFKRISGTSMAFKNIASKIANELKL
Sequence of UniProt Q16539 (whole entry, looked up): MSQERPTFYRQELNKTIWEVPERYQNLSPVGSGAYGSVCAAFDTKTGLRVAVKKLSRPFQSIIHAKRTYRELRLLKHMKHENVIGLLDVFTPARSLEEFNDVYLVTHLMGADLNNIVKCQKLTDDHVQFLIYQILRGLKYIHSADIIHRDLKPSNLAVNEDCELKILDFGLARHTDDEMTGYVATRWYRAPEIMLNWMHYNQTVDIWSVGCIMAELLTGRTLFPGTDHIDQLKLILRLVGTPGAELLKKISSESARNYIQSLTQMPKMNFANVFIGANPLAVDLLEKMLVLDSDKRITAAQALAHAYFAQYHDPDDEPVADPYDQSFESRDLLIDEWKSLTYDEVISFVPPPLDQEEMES
Sequence of UniProt Q15759 (whole entry, looked up): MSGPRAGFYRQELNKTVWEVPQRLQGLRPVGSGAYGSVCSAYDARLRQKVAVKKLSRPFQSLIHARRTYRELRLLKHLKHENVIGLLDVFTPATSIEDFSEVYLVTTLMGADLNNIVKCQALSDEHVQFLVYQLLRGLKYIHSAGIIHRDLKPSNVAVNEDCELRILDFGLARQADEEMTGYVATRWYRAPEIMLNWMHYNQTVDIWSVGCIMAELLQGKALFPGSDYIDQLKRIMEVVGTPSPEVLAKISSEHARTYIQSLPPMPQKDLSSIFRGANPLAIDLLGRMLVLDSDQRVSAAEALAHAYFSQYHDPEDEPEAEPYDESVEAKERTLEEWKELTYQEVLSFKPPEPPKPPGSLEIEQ

Series 1
Target: POU domain, class 5, transcription factor 1, POU domain (Pou5f1, Mus musculus, UniProt P20263, residues 131-289)
Sequence of UniProt P20263 (131-289, looked up): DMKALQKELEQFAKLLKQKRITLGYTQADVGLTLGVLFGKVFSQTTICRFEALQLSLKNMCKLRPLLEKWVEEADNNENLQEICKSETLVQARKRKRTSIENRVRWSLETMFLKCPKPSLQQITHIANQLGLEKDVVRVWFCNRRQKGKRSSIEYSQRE
Method: Spec-seq
Molecule type: double-stranded DNA, one strand shown
Matrix: in vitro
Tested at: not given
Notes: whole probe, mean of replicates
Baseline: not given
Direction: lower = stronger binding
Endpoint: relative binding energy
Shared flanks, not repeated: GAGTCGTCTCGTCAGCAC … CCGTAGAGCACTCAGGTC
ATGTTTAT: -0.32 ln ratio
AAAATAAT: 0.0986 ln ratio
ATAGATAT: 0.246 ln ratio
AAGTTAAT: 0.207 ln ratio
AATATAAT: 0.232 ln ratio
ATGCCCGG: 0.791 ln ratio
ATAATAAT: -0.467 ln ratio
GACATAAT: 0.357 ln ratio

Series 2
Target: TATA-box-binding protein 1 (TBP1, Arabidopsis thaliana, UniProt P28147, residues 1-200, full length assumed)
Method: protein-binding microarray
Molecule type: double-stranded DNA, one strand shown
Matrix: in vitro
Tested at: not given
Notes: k-mer, scored over probes, only values ≥0.25
Direction: higher = stronger binding
Endpoint: E-score
Target sequence (chain): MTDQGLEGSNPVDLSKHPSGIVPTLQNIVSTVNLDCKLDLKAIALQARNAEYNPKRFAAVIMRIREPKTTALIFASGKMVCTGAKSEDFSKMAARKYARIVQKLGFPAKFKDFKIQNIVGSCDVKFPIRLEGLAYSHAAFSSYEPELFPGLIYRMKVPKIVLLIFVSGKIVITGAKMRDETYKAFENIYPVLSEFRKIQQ
ATACTTA: 0.372
ATTAAGG: 0.295
TAATATA: 0.469
GGATATA: 0.41
AAAATTA: 0.323
ATATACC: 0.414
AATTAAT: 0.381
GTTTTTA: 0.405

Series 3
SMILES: CCCC(=O)Oc1ccc2[nH]c(C(=O)c3cc4ccccc4[nH]3)cc2c1
Effect on: enzyme activity
Action: inhibitor
Tested at: 0.5 µM
Baseline: control
Endpoint: remaining activity
Tyrosine-protein kinase TXK (TXK, Homo sapiens, UniProt P42681): 99.1%
Misshapen-like kinase 1 (MINK1, Homo sapiens, UniProt Q8N4C8): 93.8%
Serine/threonine-protein kinase PLK3 (PLK3, Homo sapiens, UniProt Q9H4B4): 98.4%
Mitogen-activated protein kinase 11 (MAPK11, Homo sapiens, UniProt Q15759): 87.7%
Myosin-IIIb (MYO3B, Homo sapiens, UniProt Q8WXR4): 98.6%
cGMP-dependent protein kinase 2 (PRKG2, Homo sapiens, UniProt Q13237): 97.6%
Calcium/calmodulin-dependent protein kinase type IV (CAMK4, Homo sapiens, UniProt Q16566): 111%
Serine/threonine-protein kinase Nek3 (NEK3, Homo sapiens, UniProt P51956): 95.5%
Cyclin-dependent kinase 1, with cyclin A (CDK1, Homo sapiens, UniProt P06493): 87.3%
Dual specificity protein kinase CLK4 (CLK4, Homo sapiens, UniProt Q9HAZ1): 90.2%
Serine/threonine-protein kinase MARK2 (MARK2, Homo sapiens, UniProt Q7KZI7): 83.1%
Serine/threonine-protein kinase PAK 3 (PAK3, Homo sapiens, UniProt O75914): 102%
Rho-associated protein kinase 1 (ROCK1, Homo sapiens, UniProt Q13464): 105%
Mitogen-activated protein kinase 14 (MAPK14, Homo sapiens, UniProt Q16539): 102%

Series 4
Cell line: normal organoid sample H
Method: CellTiter-Glo
Host: human
Matrix: normal-adjacent epithelium
Tested at: 1 µM
Baseline: DMSO
Endpoint: viability
CO[C@H]1CC[C@H](CNc2ccc(S(=O)(=O)NC(=O)c3ccc(N4CCN(CC5=C(c6ccc(Cl)cc6)CC(C)(C)CC5)CC4)cc3Oc3cnc4[nH]ccc4c3)cc2[N+](=O)[O-])CC1: 104% and 111%
CN1CCN(C(=O)C(C)(C)c2ccc(C(=O)Nc3cn4cc(-c5cc(C(C)(C)C)cc(C(C)(C)C)c5)ccc4n3)cc2)CC1: 69.4%
Cc1cc(-n2nc(Cc3cc(F)cc(C(F)(F)F)c3)nc2C)ccc1C(N)=O: 103%
CO[C@@H](C)c1c(Nc2ccc([C@@H](N(C)C(=O)C3CCS(=O)(=O)CC3)C(F)(F)F)cc2)cnc2cc(Cl)nn12: 130% and 88.5%
CC(C)(O)c1cncc(-c2nc3ccc(F)cc3n2C2CC2)c1: 84.8%

A few entries again (series 3):
Serine/threonine-protein kinase PLK3 (PLK3, Homo sapiens, UniProt Q9H4B4): 98.4%
Cyclin-dependent kinase 1, with cyclin A (CDK1, Homo sapiens, UniProt P06493): 87.3%
